# Assay results gathered from unrelated publications.
# Protocols differ between the studies behind these lines. Numbers after ± are the reported error.
SMILES,cell line,test,setting,IC50
CC(C)C[C@H](NC(=O)[C@@H]1CCCN1C(=O)[C@@H]1CCCN1C(=O)[C@H](CC(N)=O)NC(=O)[C@@H](N)Cc1ccc(Cl)c(Cl)c1)C(=O)N[C@@H](Cc1c[nH]cn1)C(=O)N[C@@H](CO)C(=O)N[C@H](C(=O)N[C@@H](C)C(=O)O)[C@@H](C)OP(=O)(O)O,U-266,"cell growth or viability, MTT",72 h,2.25 µM
CCC(C)C1OC(=O)C(C)(C)C(=O)C(Cc2ccccc2)OC(=O)C(C(C)C)OC(=O)C(NC(=O)c2cccc(O)c2)C(C)OC1=O (stereo not shown),NCM460,"cell growth or viability, CCK-8",72 h,> 50 µM
N#Cc1c(F)c(Cl)c2nc(SCc3ccccc3)nc(N)c2c1F,SGC-7901,"cell growth or viability, MTT",96 h,25 µM
O=C1c2ccc3c4cccc5c(N6CCNCC6)ccc(c6ccc(c2c36)C(=O)N1CCN1CCCCC1)c54,"A549, PC-3, HL-60","cytotoxicity, SRB","72 h, range over three lines",36.9 to 50.9 µM
CCCC(CCC)C(=O)[O][Pt]([NH2])([NH2])([Cl])([Cl])[O]C(=O)c1ccccc1OC(C)=O,six human cancer lines,"cytotoxicity, MTT",,1.18 µM
O=C(O)C(Cc1ccccc1[N+](=O)[O-])=NNc1nc2c(s1)CS(=O)(=O)c1cc(Cl)c(Cl)cc1-2 (mixture of isomers),CRL-2351,"cell growth, sulforhodamine B",5 days,> 20 µM
CCCCCCCCSc1nc(N)c2c(F)c(C#N)c(F)c(F)c2n1,SGC-7901,"cell growth or viability, MTT",96 h,73.5 µM
COC(=O)CCC(=O)[O][Pt-2]1([OH])([Cl])([Cl])[NH2+]CC[N+]1(C)C,SW1573,cell growth or viability,96 h,30.4 µM
CCCC/C=N/NC(=O)c1cc2cc(Nc3nccc(-c4cccnc4)n3)ccc2[nH]1,LO2,"cell viability, MTT",48 h,> 50 µM
N#Cc1cccc(-c2ccc(=O)n(Cc3cccc(-c4ncc(OCC5CCN(CCCCCCCCCC(=O)Nc6cccc7c6C(=O)N(C6CCC(=O)NC6=O)C7=O)CC5)cn4)c3)n2)c1 (stereo not shown),Hs746T,"cell growth or viability, CCK-8",72 h,0.226 µM
Cc1nc(-c2ccc(NC(=O)c3cccs3)cc2Cl)no1,MRC5 lung fibroblasts,"cytotoxicity, LDH release",,> 30 µM
COC(=O)[C@H]1[C@H]2C[C@H]3O[C@@]4(CCN3C[C@H]2C[C@@H](OC(=O)c2cc(OC)c(OC)c(OC)c2)[C@@H]1OC)C(=O)Nc1cc(OC)c(-c2ccc(C(F)(F)F)cc2)cc14,SUP-T1,"cell growth or viability, trypan blue",72 h,3.64 µM
C=CC(=O)N1CCCC(n2c(=O)c3ncccc3n(Cc3ccc(Oc4ccccc4)cc3)c2=O)C1 (stereo not shown),RPMI-8226 carfilzomib-resistant,"cell proliferation, MTT",72 h,2.5 µM
N=C(N)Nc1nc2ccccc2o1,BPH-1,"cell growth or viability, MTT",24 h,> 500 µM
C=C1CC(O)CC(C)=CCC2C1CC2(C)O (stereo not shown),KPC,"cell viability, CCK-8",72 h,> 50 µM
CCC1=C(CC)C2=[N+]3C1=Cc1c(CC)c(CC)c4[n]1[Ir-3]31([Cl])([C]#[O+])[n]3c(c(CC)c(CC)c3=CC3=[N+]1C(=C4)C(CC)=C3CC)=C2,HCC827,"cell growth or viability, MTT",72 h,> 50 µM
C=C1C(=O)OC2C1CCC1(C)CC1CCC1(C)OC21 (stereo not shown),"B140H murine AML, cytarabine-resistant","cell growth, inhibitor",,5.9 ± 2.4 µM
CC1OC(OCC2OC(Oc3cc(O)c4c(=O)cc(-c5ccc(O)c(O)c5)oc4c3)C(O)C(O)C2O)C(O)C(O)C1O (stereo not shown),U87MG.ΔEGFR glioblastoma,"cytotoxicity, resazurin reduction",72 h,48.2 ± 4 µM
C#Cc1cc(C(=O)C2=C(C)C(=O)c3ccccc3C2=O)ccc1C(F)(F)F,MRC-5,cytotoxicity,,25.8 µM
CC(=O)N1N=C(C)CC1c1ccccc1 (stereo not shown),human Skin fibroblast,"cell growth or viability, LDH",48 h,18.6 µM
OC[C@H]1[C@@H](O)[C@@H](O)CN1CCc1ccccc1,HCT116 p53-/-,MTS,72 h,> 200 µM
CC(C)C1OC(=O)C(NC(=O)c2cccc(O)c2)C(C)OC(=O)C(C(C)C)OC(=O)C(C)(C)C(=O)C(Cc2ccccc2)OC1=O (stereo not shown),NCM460,"cell viability, CCK-8",72 h,> 50 µM
Cc1cc(O)cc(O)c1C(=O)c1c2c3c(c(O)cc(C)c3oc1=O)C(=O)c1c(O)cc(O)cc1-2,human cancer cell lines,"cell growth, SRB",72 h,2.37 to 7.07 µM
COc1ccc(-c2nnc(-c3ccccn3)[nH]2)cc1OC.COc1ccc(-c2nnc(-c3ccccn3)[nH]2)cc1OC.[Cu+2].[O-][Cl+3]([O-])([O-])[O-].[O-][Cl+3]([O-])([O-])[O-],T24,"cell growth or viability, MTT",24 h,91.4 µM
COC(=O)[C@H]1[C@H]2C[C@H]3O[C@@]4(CCN3C[C@H]2C[C@@H](OC(=O)c2cc(OC)c(OC)c(OC)c2)[C@@H]1OC)C(=O)Nc1cc(OC)ccc14,SUP-T1,"cell growth or viability, trypan blue",72 h,74.5 µM
CNCCNC(=O)c1cn(C23CCCC(C)(CCC4C2CC4(C)C)C3)nn1 (stereo not shown),NCM460,"cell growth or viability, CCK-8",72 h,33.7 µM
CC/C(=C(\c1ccc(O)cc1)c1ccc(OCCN(C)CCOCCN(C)CCOc2ccc(/C(=C(/CC)c3ccccc3)c3ccc(O)cc3)cc2)cc1)c1ccccc1,MDA-MB-231 (ER-negative),cell growth,96 h,> 20 µM
Cc1cc(C#N)cc(C)c1Oc1cc(Nc2ccc(C#N)cn2)nc2cnccc12,H69AR (multidrug resistant),,48 h,> 127 µM
N#Cc1cccc(-c2ccc(=O)n(Cc3cccc(-c4ncc(OCC5CCN(CC(=O)NCCOCCNc6ccc7c(c6)C(=O)N(C6CCC(=O)NC6=O)C7=O)CC5)cn4)c3)n2)c1 (stereo not shown),Hs746T,"cell growth or viability, CCK-8",72 h,0.00589 µM
COCCSc1nc(N)c2c(F)c(C#N)c(F)c(Cl)c2n1,SGC-7901,"cell growth or viability, MTT",96 h,7.34 µM
CN1CCCNC(=O)c2cccc(c2)C(=O)NCCCN(C)CCCNc2cccc3c2C(=O)c2cccc(c2C3=O)NCCC1,SAS,"cell growth or viability, CCK-8",48 h,0.6 µM
N#Cc1cccc(-c2ccc(=O)n(Cc3cccc(-c4ncc(OCC5CCN(CCCC(=O)Nc6cccc7c6C(=O)N(C6CCC(=O)NC6=O)C7=O)CC5)cn4)c3)n2)c1 (stereo not shown),Hs746T,"cell growth or viability, CCK-8",72 h,0.0658 µM
COCCNc1nc(-c2nccn2C)nc2sc(-c3cccc(OC)c3Cl)c(-c3ccccc3)c12,PANC-1 (KRAS G12D),"Western blot, refers to: phospho-MEK, ERK1/2 and Akt","6 h, added: EGF 15 min",1 to 3 µM
Nc1ccn([C@@H]2O[C@H](CSSc3ccccn3)[C@@H](O)[C@H](F)[C@H]2O)c(=O)n1,FM3A,cell growth or viability,,> 500 µM
CC/C(=C(/c1ccc(O)cc1)c1ccc(OCCN(C)CCOCCOCCOCCOCCOC)cc1)c1ccccc1,MDA-MB-231 (ER-negative),cell growth,96 h,1.94 µM
CC(C)=CCC1=C([O-])C(=O)c2ccccc2C1=O.CC(C)=CCC1=C([O-])C(=O)c2ccccc2C1=O.[Cu+2].c1ccc(-c2ccccn2)nc1,HOS,"cell viability, MTT",24 h,31.9 ± 3.1 µM
CC12CCCC(n3cc(C(=O)N4CC(N)C4)nn3)(C1)C1CC(C)(C)C1CC2 (stereo not shown),NCM460,"cell growth or viability, CCK-8",72 h,18.7 µM
N#Cc1c(-c2ccc(Cl)cc2)cc(-c2cccc3ccccc23)nc1NNC(=O)Cc1ccccc1,U-937,"cell growth or viability, MTT",72 h,0.422 µM
CC(C)c1cccc(C(C)C)c1-n1c2c([n+](-c3c(C(C)C)cccc3C(C)C)[c]1[Au-][Cl])-c1cccc3cccc-2c13,CHO,"cell growth or viability, MTT",72 h,> 50 µM
CCCC(CCC)C(=O)[O][Pt]([NH2])([NH2])([Cl])([Cl])[O]C(=O)C(Cl)Cl,six human cancer lines,"cytotoxicity, MTT",,1.17 µM
COc1cc(/C=C/C(=O)/C=C(O)/C=C/c2ccc(OCC(=O)N3CCOCCOCCOCC3)c(OC)c2)ccc1OCC(=O)N1CCOCCOCCOCC1,SK-LU-1,"cell growth or viability, SRB",,12.7 µM
COc1cc(-c2cc(=O)c3c(O)cc(OC4OC(COC5OC(C)C(O)C(O)C5O)C(O)C(O)C4O)cc3o2)ccc1O (stereo not shown),U87MG.ΔEGFR glioblastoma,"cytotoxicity, resazurin reduction",72 h,38.1 ± 3 µM
Cc1cc(C=O)cc(C)c1Oc1cc(Nc2ccc(C#N)cn2)nc2cnccc12,H69AR (multidrug resistant),,48 h,> 126 µM
CCn1c2ccccc2c2cc(C(O)c3cccc4ncccc34)ccc21 (stereo not shown),sample B patient-derived glioma cells,tumour microtube length per cell,24 h,0.014 µM
N#Cc1cccc(-c2ccc(=O)n(Cc3cccc(-c4ncc(OCC5CCN(CCCCC(=O)Nc6cccc7c6C(=O)N(C6CCC(=O)NC6=O)C7=O)CC5)cn4)c3)n2)c1 (stereo not shown),Hs746T,"cell growth or viability, CCK-8",72 h,0.0763 µM
O=C(Nc1ccn([C@@H]2O[C@H](CO)[C@@H](O)[C@H](F)[C@H]2O)c(=O)n1)c1ccccc1,FM3A,cell growth or viability,,> 200 µM
C=C(C)[C@@H]1CC[C@]2(C(=O)OCO/N=[N+](\[O-])N3CCCC3)CC[C@]3(C)[C@H](CC[C@@H]4[C@@]5(C)CC[C@H](OC(C)=O)C(C)(C)[C@@H]5CC[C@]43C)[C@@H]12,HELF,"cell growth or viability, MTT",72 h,17.8 µM
C=C[CH2][Pd-]([Cl])[Cl].CC(C)c1cccc(C(C)C)c1-n1c[n+](-c2c(C(C)C)cccc2C(C)C)c2c1-c1cccc3cccc-2c13,CHO,"cell growth or viability, MTT",72 h,9 µM
CCCC(CCC)C(=O)[O][Pt]([Cl])([Cl])[O]C(=O)C(CCC)CCC.N.N,seven cancer cell lines,cytotoxicity,mean over panel,1.4 µM
O=C(O)C(Cc1ccccc1[N+](=O)[O-])=NNc1nc2c(s1)CS(=O)(=O)c1c-2ccc(Cl)c1Cl (mixture of isomers),CRL-2351,"cell growth, sulforhodamine B",5 days,> 20 µM
C[n+]1c(/C=C/c2ccc(N(c3ccccc3)c3ccccc3)cc2)cc(/C=C2\Sc3ccccc3N2CCCN2CCCC2)c2ccccc21,Raji,cell growth or viability,36 h,0.73 µM
O=C1CCC(N2C(=O)c3cccc(NCC(=O)N4CCN(c5ccc(Nc6nccc(Oc7ccccc7)n6)cc5)CC4)c3C2=O)C(=O)N1 (stereo not shown),Mino,,72 h,0.077 µM

# Some of these lines once more:
SMILES,cell line,test,setting,IC50
CCC1=C(CC)C2=[N+]3C1=Cc1c(CC)c(CC)c4[n]1[Ir-3]31([Cl])([C]#[O+])[n]3c(c(CC)c(CC)c3=CC3=[N+]1C(=C4)C(CC)=C3CC)=C2,HCC827,"cell growth or viability, MTT",72 h,> 50 µM
CC1OC(OCC2OC(Oc3cc(O)c4c(=O)cc(-c5ccc(O)c(O)c5)oc4c3)C(O)C(O)C2O)C(O)C(O)C1O (stereo not shown),U87MG.ΔEGFR glioblastoma,"cytotoxicity, resazurin reduction",72 h,48.2 ± 4 µM
CCCC(CCC)C(=O)[O][Pt]([Cl])([Cl])[O]C(=O)C(CCC)CCC.N.N,seven cancer cell lines,cytotoxicity,mean over panel,1.4 µM
